Measurements pooled from the literature.
Numbers after ± are the reported error.
blaNDM-1: Metallo-beta-lactamase type 2 (blaNDM-1, Klebsiella pneumoniae, UniProt C7C422)
Chain of UniProt C7C422 (whole entry, looked up): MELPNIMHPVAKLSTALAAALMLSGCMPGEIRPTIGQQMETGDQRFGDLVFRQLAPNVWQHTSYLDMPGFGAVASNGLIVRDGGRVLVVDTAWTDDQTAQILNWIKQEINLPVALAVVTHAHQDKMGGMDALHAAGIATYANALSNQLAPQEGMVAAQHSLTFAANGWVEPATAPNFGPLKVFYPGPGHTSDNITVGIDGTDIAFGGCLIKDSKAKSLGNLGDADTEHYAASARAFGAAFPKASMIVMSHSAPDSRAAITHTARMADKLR
Uncharacterized hydrolase SAUSA300_2518: Uncharacterized hydrolase SAUSA300_2518 (Staphylococcus aureus, UniProt Q2FDS6)
Chain of UniProt Q2FDS6 (whole entry, looked up): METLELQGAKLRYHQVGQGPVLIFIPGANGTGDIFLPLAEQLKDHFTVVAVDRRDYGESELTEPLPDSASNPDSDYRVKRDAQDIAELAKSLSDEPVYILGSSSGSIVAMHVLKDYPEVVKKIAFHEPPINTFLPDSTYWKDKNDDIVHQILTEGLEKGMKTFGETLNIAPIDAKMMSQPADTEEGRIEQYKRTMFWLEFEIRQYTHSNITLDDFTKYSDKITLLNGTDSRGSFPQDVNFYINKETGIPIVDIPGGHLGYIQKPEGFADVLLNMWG
lasR: Transcriptional activator protein LasR (lasR, Pseudomonas aeruginosa, UniProt P25084)
Chain of UniProt P25084 (whole entry, looked up): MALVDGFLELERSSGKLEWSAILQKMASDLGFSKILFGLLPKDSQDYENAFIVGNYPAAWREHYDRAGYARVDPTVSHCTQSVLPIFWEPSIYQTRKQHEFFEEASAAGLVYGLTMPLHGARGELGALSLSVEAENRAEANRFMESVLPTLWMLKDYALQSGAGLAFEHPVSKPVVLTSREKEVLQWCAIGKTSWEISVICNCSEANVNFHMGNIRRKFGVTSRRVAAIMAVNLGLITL
CYP2C9: Cytochrome P450 2C9 (CYP2C9, Homo sapiens, UniProt P11712)
Formate-nitrite transporter: Formate-nitrite transporter (Plasmodium falciparum, UniProt O77389)
Chain of UniProt O77389 (whole entry, looked up): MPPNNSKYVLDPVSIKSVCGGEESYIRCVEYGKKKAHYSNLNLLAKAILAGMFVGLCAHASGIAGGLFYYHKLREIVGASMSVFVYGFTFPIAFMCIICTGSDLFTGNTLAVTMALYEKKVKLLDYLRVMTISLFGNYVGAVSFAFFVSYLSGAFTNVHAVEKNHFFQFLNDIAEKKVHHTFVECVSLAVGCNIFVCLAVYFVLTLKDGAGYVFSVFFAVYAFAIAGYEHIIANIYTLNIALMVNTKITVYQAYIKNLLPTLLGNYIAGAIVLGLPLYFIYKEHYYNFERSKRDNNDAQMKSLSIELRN
CYP2C19: Cytochrome P450 2C19 (CYP2C19, Homo sapiens, UniProt P33261)
Chain of UniProt P33261 (whole entry, looked up): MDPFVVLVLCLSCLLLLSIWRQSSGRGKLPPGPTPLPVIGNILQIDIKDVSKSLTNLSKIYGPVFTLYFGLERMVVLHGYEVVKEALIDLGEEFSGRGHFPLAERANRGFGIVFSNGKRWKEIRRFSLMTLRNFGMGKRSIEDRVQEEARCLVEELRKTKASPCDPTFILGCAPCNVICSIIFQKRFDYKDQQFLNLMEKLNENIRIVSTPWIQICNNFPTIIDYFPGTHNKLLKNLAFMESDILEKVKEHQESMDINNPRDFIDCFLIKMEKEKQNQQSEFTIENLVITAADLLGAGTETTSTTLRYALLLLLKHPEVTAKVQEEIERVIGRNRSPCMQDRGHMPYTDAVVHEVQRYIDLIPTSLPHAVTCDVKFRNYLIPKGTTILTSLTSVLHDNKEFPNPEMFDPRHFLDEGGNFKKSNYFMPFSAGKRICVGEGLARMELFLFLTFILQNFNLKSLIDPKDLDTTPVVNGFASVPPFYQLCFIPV
SIRT5: NAD-dependent protein deacylase sirtuin-5, mitochondrial (SIRT5, Homo sapiens, UniProt Q9NXA8)
Chain of UniProt Q9NXA8 (whole entry, looked up): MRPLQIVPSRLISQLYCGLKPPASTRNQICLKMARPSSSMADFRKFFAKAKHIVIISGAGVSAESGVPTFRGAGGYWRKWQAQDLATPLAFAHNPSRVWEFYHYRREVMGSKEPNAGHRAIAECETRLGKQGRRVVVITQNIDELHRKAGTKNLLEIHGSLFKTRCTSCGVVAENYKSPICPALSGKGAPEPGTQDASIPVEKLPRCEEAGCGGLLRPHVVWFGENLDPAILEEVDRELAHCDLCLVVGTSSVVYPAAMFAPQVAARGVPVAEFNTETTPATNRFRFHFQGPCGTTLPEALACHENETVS
Chain of UniProt P21397 (whole entry, looked up): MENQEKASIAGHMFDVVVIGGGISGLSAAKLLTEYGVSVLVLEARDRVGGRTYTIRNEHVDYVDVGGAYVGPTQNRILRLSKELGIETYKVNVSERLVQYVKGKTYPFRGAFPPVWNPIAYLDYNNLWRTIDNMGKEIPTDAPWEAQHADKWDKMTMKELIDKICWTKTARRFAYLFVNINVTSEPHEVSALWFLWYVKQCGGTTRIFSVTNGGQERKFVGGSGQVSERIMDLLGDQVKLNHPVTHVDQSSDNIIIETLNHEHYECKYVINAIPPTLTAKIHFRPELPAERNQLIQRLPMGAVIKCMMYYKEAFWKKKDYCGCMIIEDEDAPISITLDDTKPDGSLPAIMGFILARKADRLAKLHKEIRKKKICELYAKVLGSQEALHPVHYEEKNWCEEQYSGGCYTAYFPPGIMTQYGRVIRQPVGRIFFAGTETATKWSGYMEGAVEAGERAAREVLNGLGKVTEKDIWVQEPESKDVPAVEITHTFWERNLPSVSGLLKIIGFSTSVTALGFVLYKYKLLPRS
Chain of UniProt Q9Y3R4 (whole entry, looked up): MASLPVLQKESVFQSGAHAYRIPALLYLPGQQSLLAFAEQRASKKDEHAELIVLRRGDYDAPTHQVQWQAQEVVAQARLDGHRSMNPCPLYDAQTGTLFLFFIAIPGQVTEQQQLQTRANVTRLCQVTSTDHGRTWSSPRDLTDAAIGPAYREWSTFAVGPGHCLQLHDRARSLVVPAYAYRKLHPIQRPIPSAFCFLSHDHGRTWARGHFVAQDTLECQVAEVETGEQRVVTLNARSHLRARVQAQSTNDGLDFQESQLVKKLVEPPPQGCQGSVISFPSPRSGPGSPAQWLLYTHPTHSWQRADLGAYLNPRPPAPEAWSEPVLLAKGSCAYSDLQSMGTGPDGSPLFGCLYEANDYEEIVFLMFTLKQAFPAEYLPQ
Chain of UniProt O55040 (whole entry, looked up): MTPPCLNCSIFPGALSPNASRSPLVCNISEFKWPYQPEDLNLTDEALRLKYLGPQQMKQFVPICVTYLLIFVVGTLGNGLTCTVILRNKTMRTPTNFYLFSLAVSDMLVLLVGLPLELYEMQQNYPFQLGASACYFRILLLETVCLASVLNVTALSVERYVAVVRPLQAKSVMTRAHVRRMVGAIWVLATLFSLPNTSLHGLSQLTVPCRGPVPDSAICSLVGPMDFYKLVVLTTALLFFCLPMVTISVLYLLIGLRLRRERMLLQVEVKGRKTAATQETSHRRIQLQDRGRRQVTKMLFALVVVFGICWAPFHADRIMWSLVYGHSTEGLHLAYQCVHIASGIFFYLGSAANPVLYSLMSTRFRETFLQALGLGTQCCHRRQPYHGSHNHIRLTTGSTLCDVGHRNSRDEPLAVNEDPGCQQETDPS
Chain of UniProt Q99436 (whole entry, looked up): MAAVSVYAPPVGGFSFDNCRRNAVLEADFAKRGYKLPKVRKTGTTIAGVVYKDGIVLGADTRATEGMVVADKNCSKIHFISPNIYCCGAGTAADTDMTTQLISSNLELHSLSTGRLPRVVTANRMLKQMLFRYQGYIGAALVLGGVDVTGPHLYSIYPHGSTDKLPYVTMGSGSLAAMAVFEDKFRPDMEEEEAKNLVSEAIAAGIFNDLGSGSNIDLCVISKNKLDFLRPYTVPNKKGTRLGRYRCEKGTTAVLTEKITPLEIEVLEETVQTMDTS
Chain of UniProt P32019 (whole entry, looked up): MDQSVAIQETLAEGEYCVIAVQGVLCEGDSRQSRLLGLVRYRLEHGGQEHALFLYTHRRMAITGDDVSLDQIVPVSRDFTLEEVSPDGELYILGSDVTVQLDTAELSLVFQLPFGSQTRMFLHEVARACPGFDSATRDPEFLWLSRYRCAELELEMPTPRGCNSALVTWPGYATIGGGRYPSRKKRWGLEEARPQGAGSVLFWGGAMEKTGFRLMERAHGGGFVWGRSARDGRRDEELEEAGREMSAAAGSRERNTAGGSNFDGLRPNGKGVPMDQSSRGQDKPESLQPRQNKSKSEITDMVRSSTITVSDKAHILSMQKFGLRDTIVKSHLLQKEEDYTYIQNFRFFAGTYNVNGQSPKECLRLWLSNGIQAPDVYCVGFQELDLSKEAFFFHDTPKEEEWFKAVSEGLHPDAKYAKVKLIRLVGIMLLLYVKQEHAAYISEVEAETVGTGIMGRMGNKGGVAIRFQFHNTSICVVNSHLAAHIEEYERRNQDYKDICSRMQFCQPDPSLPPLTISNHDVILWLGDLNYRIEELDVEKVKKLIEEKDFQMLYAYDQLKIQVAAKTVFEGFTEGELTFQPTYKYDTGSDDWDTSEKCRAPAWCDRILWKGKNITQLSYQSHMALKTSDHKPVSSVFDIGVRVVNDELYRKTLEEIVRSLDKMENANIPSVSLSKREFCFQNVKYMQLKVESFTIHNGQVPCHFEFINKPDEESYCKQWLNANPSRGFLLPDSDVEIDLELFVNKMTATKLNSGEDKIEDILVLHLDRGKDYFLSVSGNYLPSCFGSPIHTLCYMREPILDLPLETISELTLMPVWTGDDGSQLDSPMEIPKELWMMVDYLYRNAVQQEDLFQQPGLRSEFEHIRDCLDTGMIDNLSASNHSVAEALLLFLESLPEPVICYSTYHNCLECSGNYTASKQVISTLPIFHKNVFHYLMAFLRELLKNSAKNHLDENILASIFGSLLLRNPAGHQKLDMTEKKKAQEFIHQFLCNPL
Chain of UniProt P0A6M2 (whole entry, unmodified, looked up): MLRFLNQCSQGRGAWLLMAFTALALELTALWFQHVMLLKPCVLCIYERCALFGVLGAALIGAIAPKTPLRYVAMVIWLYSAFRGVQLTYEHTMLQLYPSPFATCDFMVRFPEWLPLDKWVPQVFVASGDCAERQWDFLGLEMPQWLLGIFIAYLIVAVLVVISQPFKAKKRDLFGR

With C#CCNC(=O)c1ccc(S(=O)(=O)N[C@@H](CCCCNC(=S)NC)C(=O)N[C@@H](CCCNC(=N)N)C(=O)N[C@@H](CC2CCCCC2)C(=O)N[C@H](CCCCN)C(=O)N[C@@H](CC2CCCCC2)C(=O)N[C@H](CCCNC(=N)N)C(=O)N[C@@H](CC2CCCCC2)C(N)=O)cc1 the IC50 was 0.89 µM (NAD-dependent protein deacetylase sirtuin-2 (SIRT2, Homo sapiens, UniProt Q8IXJ6); enzyme activity, inhibitor, fluorescence).
CSCC[C@@H]1NC(=O)[C@H](Cc2ccc(O)cc2)NC(=O)[C@@H](NC(=O)[C@H](C)N)CSC(=O)[C@H](C(C)C)NC(=O)[C@H](Cc2ccccc2)NC1=O gave an IC50 of 3.46 µM (Histidine kinase AgrC (Listeria monocytogenes, UniProt A8E0G3); agr signalling).
NC(=O)C[C@H]1NC(=O)[C@@H](CCC(=O)O)NC(=O)[C@H](CCC(=O)O)NC(=O)[C@@H]2CCCN2C(=O)[C@H](C(c2ccccc2)c2ccccc2)NC(=O)[C@@H]2CCCN2C(=O)[C@H]2CCCN2C(=O)[C@H](Cc2c[nH]cn2)NC1=O has an IC50 of 275 µM (blaNDM-1; enzyme activity, inhibitor, absorbance).
Cc1nc(C)c(F)c(N2CCC(C3NC(=O)C3(C)C)CC2)n1 (stereo not shown) has an IC50 of over 50 µM (Uncharacterized hydrolase SAUSA300_2518; enzyme activity, inhibitor).
With O=C(Cc1cccc(I)c1)N[C@H]1CCOC1=O the IC50 was 0.6 µM (lasR; reporter gene, antagonist; Escherichia coli lasI-lacZ reporter; together with: 5 nM OdDHL).
CCOC(=O)C1CCN(C(=O)n2cc[n+](C)c2)CC1 gave an IC50 of over 50 µM (Uncharacterized hydrolase SAUSA300_2518; enzyme activity, inhibitor).
For O=C(CN1CN(c2ccccc2)C2(CCN(C(=O)c3cnc4[nH]ncc4c3)CC2)C1=O)NCC(F)(F)F, the IC50 was 22 µM (CYP2C9; inhibitor).
With O=C(C=C(O)C(F)(F)C(F)(F)F)c1ccoc1 the IC50 was 0.019 ± 0.001 µM (Formate-nitrite transporter; L-lactate transport, inhibitor, fluorescence; yeast; pH 6.8, together with: L-lactate 1 mM).
With C[C@H](NC(=O)[C@@H](N)CCC(=O)O)C(=O)N[C@@H](Cc1ccc(O)cc1)C(=O)N[C@@H](CCC(N)=O)C(=O)O the IC50 was 3220 µM (Amine oxidase [flavin-containing] A (MAOA, Homo sapiens, UniProt P21397); enzyme activity, inhibitor, fluorescence).
CCCCCCCCCC(=O)CC(=O)Nc1ccccc1O — result for IC50: “no inhibition” (lasR; reporter gene, antagonist; Escherichia coli, JLD271 with LasR plasmid; together with: OdDHL 2 nM).
With CC1(C)NC(=O)[C@@H](CC(=O)O)NC(=O)[C@H](CCC(=O)O)NC(=O)[C@H](CCCN)NC(=O)[C@H](C(c2ccccc2)c2ccccc2)NC(=O)[C@@H]2CCCN2C(=O)[C@H]2CCCN2C(=O)[C@H](CC(N)=O)NC1=O the IC50 was 303 µM (blaNDM-1; enzyme activity, inhibitor, absorbance).
Cc1ccc2c(n1)c(-c1cccc(S(C)(=O)=O)c1)c(C)n2C/C(F)=C/CN has an IC50 of 0.041 µM (Diamine oxidase [copper-containing] (AOC1, Homo sapiens, UniProt P19801); enzyme activity, inhibitor, fluorescence).
For CC(C)(COP(=O)(O)OP(=O)(O)OC[C@H]1O[C@@H](n2cnc3c(N)ncnc32)[C@H](O)[C@@H]1OP(=O)(O)O)[C@@H](O)C(=O)NCCC(=O)NCCSCC(=O)N[C@@H](CO)C(=O)NCC(=O)N[C@@H](CCCNC(=N)N)C(=O)N[C@@H](CCCNC(=N)N)C(=O)N[C@@H](CCCNC(=N)N)C(=O)N[C@@H](CCCNC(=N)N)C(=O)N[C@@H](CCCNC(=N)N)C(=O)N[C@@H](CCCNC(=N)N)C(N)=O, the IC50 was 0.674 µM (N-alpha-acetyltransferase 40 (NAA40, Homo sapiens, UniProt Q86UY6); enzyme activity, inhibitor, fluorescence).
The IC50 of Cc1ccc(N2CC3CC(C2)N3)cc1C(=O)NC1(c2ccc3c4c(cccc24)C(=O)N3C)CC1 is reported as 7.95 µM (CYP2C19; enzyme activity, inhibitor).
With CCc1nnc(-c2c(OC)cc(-c3cnc4cc(-c5cnn(C)c5)ccn34)cc2OC)o1 the IC50 was over 10 µM (CYP2C19; enzyme activity, inhibitor).
For N=C(N)NCCC[C@H](NC(=O)[C@H](CCCCNC(=O)c1cncc(OS(=O)(=O)F)c1)NS(=O)(=O)c1cccc(F)c1)C(=O)NC1CCC1, the IC50 was 7.3 ± 0.3 µM (SIRT5; inhibitor, fluorogenic; pre-incubation 16 h, together with: NAD+ 500 µM).
The IC50 of O=C(Nc1ccccc1NC(=O)c1cccc(Cl)c1)c1cccc(Cl)c1 is reported as 63 µM (lasR; reporter gene, antagonist, lasI-LVAgfp reporter; PAO-JP2; efflux pump active, together with: OdDHL 150 nM).
For CC[C@H](C)[C@@H]1NC(=O)[C@@H]2CCCN2C(=O)[C@@H](CS)NC(=O)[C@H](CC(C)C)NC(=O)[C@@H](CCCNC(=N)N)NC(=O)[C@@H]([C@H](C)O)NC(=O)C(C)(C)NC(=O)[C@@H]2CCCN2C1=O, the IC50 was 17.5 µM (blaNDM-1; enzyme activity, inhibitor, absorbance).
With CC[C@H](C)[C@H](N)C(=O)N[C@@H](CCCNC(=N)N)C(=O)N[C@@H](CCC(N)=O)C(=O)N[C@@H](CCC(=O)O)C(=O)N[C@@H](CCC(=O)O)C(=O)N[C@H](C(=O)N[C@@H](CCC(N)=O)C(=O)N[C@@H](CCC(=O)O)C(=O)N[C@@H](CC(C)C)C(=O)O)C(C)C the IC50 was over 70 µM (HLA class I histocompatibility antigen, A alpha chain, allele A*26:01 (Homo sapiens, UniProt P04439); peptide-MHC binding, radioligand competition binding).
O=P(O)(O)Oc1cc(-c2cc(OP(=O)(O)O)c(OP(=O)(O)O)c(OP(=O)(O)O)c2)cc(OP(=O)(O)O)c1OP(=O)(O)O gave an IC50 of 5.5 ± 0.5 µM (Type II inositol 1,4,5-trisphosphate 5-phosphatase (Homo sapiens, UniProt P32019)).
CSCC[C@H](NC(=O)[C@@H](N)CCCNC(=N)N)C(=O)N[C@@H](CO)C(=O)N[C@@H](C)C(=O)N1CCC[C@H]1C(=O)N[C@@H](CO)C(=O)N[C@H](C(=O)NCC(=O)NCC(=O)N[C@H](C(=O)O)C(C)C)[C@@H](C)O has an IC50 of over 38.7 µM (HLA class I histocompatibility antigen, A alpha chain, allele A*02:06 (Homo sapiens, UniProt P04439); binding).
For CC[C@H](C)[C@@H]1NC(=O)[C@@H]2CCCN2C(=O)[C@@H](CS)NC(=O)[C@H](CC(C)C)NC(=O)[C@@H](CCCNC(=N)N)NC(=O)[C@@H](CCCNC(=N)N)NC(=O)C(C)(C)NC(=O)[C@@H]2CCCN2C1=O, the IC50 was 2.2 µM (blaNDM-1; enzyme activity, inhibitor, absorbance).
O=C(C=C(O)C(F)(F)C(F)(F)F)c1cccc(O)c1 gave an IC50 of 0.312 ± 0.049 µM (Formate-nitrite transporter; L-lactate transport, inhibitor, fluorescence; yeast; pH 6.8, together with: L-lactate 1 mM).
The IC50 of O=C(Nc1ccc(-c2ccccc2)cc1)N[C@H]1[C@H]([C@H](O)[C@H](O)CO)OC(C(=O)O)=C[C@@H]1O is reported as over 500 µM (Sialidase-2 (Homo sapiens, UniProt Q9Y3R4); enzyme activity, inhibitor).
With O=C(CCc1ccc(Br)cc1)N[C@H]1CCOC1=O the IC50 was 7.3 µM (lasR; reporter gene, antagonist; PAO-JP2; together with: OdDHL 30 nM).
For CCCCNc1c(Cl)cnn(-c2ccccc2)c1=O, the IC50 was 6.69 to 10.3 µM (Disulfide bond formation protein B (Escherichia coli, UniProt P0A6M2, C49V/C8A); enzyme activity, inhibitor).
The IC50 of O=C(C=C(O)C(F)(F)C(F)(F)F)c1ccc(NCc2ccc(F)cc2)nc1 is reported as 0.522 ± 0.083 µM (Formate-nitrite transporter; L-lactate transport, inhibitor, fluorescence; yeast; pH 6.8, together with: L-lactate 1 mM).
COc1cc(C[C@H](C)[C@H](C)Cc2ccc3c(c2)OCO3)ccc1O gave an IC50 of over 100 µM (Dipeptidyl peptidase 4 (DPP4, Homo sapiens, UniProt P27487); enzyme activity, inhibitor, fluorescence).
For Cc1nc(N2CCC(N(C)c3cc(C(=O)NCCN4CCCC4)cnn3)CC2)nc(C)c1CC(C)C, the IC50 was over 30 µM (CYP2C9; enzyme activity, inhibitor).
The IC50 of CCN(C)C(=O)Oc1ccccc1/C=C1\Cc2cc(OC)c(OC)cc2C1=O is reported as over 10 µM (Prothrombin (F2, Homo sapiens, UniProt P00734); enzyme activity, inhibitor).
The IC50 of C#CCNC(=O)c1ccc([P+](CCCC(=O)N[C@@H](CCCCNC(=O)c2cncc(OS(=O)(=O)F)c2)C(=O)N[C@@H](CCCNC(=N)N)C(=O)NC2CCC2)(c2ccccc2)c2ccccc2)cc1 is reported as over 200 µM (SIRT5; inhibitor, fluorogenic; 0 h preincubation, non-tagged enzyme 150 nM, together with: NAD+ 500 µM).
The IC50 of FC(F)(F)C(F)(F)c1cc(-c2cccnc2)n[nH]1 is reported as 43.5 ± 21 µM (Formate-nitrite transporter; L-lactate transport, inhibitor, fluorescence; yeast; pH 6.8, together with: L-lactate 1 mM).
With CC(C)C[C@H](NC(=O)[C@H](Cc1ccc(CN)cc1)NC(=O)[C@H](Cc1ccccc1)N=[N+]=[N-])C(=O)N[C@@H](CC1CCC2CCCCC2C1)C(=O)[C@@]1(C)CO1 (stereo partly shown) the IC50 was 0.233 µM (Proteasome subunit beta type-7 (PSMB7, Homo sapiens, UniProt Q99436); inhibitor, competitive ABPP; Raji cell lysate; constitutive proteasome β2c).
O=P(O)(O)C(Nc1cccc(Cl)c1Cl)P(=O)(O)O gave an IC50 of 262 µM (polyphosphate kinase 2 (Cytophaga hutchinsonii, UniProt A0A6N4SMB5); enzyme activity, inhibitor, HPLC; 30 min, 37 °C, together with: 0.04 mM ADP and 0.3 mM polyP).
O=C(C=C(O)C(F)(F)C(F)(F)F)c1ccco1 has an IC50 of 0.059 ± 0.003 µM (Formate-nitrite transporter; L-lactate transport, inhibitor, fluorescence; yeast; pH 6.8, together with: L-lactate 1 mM).
With O=C(NCCCC[C@H](NS(=O)(=O)c1cccc(F)c1)C(=O)N[C@@H](Cc1c[nH]c2ccccc12)C(=O)NC1CCC1)c1cncc(OS(=O)(=O)F)c1 the IC50 was 20 ± 13 µM (SIRT5; inhibitor, fluorogenic; 4 h preincubation, His-tagged enzyme 150 nM, together with: NAD+ 500 µM).
CCCCCCCCCCCCCCCCCC(=O)NC[C@H]1CC[C@H](C(=O)N[C@@H](CCC(=O)NCCCOCCOCCOCCCNC(=O)COCC(=O)N[C@@H](Cc2ccc(O)cc2)C(=O)NC(C)(Cc2ccccc2)C(=O)N[C@@H](CC(C)C)C(=O)N[C@@H](CCCC)C(=O)N[C@@H](CCCNC(=N)N)C(=O)N2CCC[C@H]2C(=O)N[C@@H](CCCNC(=N)NC)C(=O)N[C@@H](CC(N)=O)C(N)=O)C(=O)O)CC1 (stereo partly shown) gave an IC50 of 0.00047 µM (Neuromedin-U receptor 1 (Mus musculus, UniProt O55040); ligand displacement, radioligand; cell membranes).
